Measurements from different studies.
Numbered parts are unrelated; each lists some results of a single study. Changes are numbered by the printed parent chain.

Set 1
Target: UBE2W UBC core domain (UniProt Q96B02)
Method: yeast two-hybrid
Medium: yeast
Setting: mostly zero background
Reference: not given
Direction: higher = stronger interaction
B1: RNF43 RING domain (UniProt Q68DV7); chain SGSSCSSAPVCAICLEEFSEGQELRVISCLHEFHRNCVDPWLHQHRTCPLCMFNITEGDSFS
B2: RNF150 RING domain (UniProt Q9ULK6); chain DKETESDFDNCAVCIEGYKPNDVVRILPCRHLFHKSCVDPWLLDHRTCPMCKMNILKALGIP
B3: PEX2 RING domain (UniProt P28328); chain DNTLATSGKECALCGEWPTMPHTIGCEHIFCYFCAKSSFLFDVYFTCPKCGTEVHSLQPLK
B4: TRIM3 RING domain (UniProt O75382); chain VQPMDKQFLVCSICLDRYQCPKVLPCLHTFCERCLQNYIPAQSLTLSCPVCRQTSILPEQGV
B5: ANKIB1 RING domain (UniProt Q9P2G1); chain LSPGDLDTSLCDICMCSISVFEDPVDMPCGHDFCRGCWESFLNLKIQEGEAHNIFCPAYDCFQLVPVDIIE
B6: NSMCE1 RING domain (UniProt Q8WV22); chain RETYPDAVKICNICHSLLIQGQSCETCGIRMHLPCVAKYFQSNAEPRCPHCNDYWPHEIPKV
B7: RNF112 RING domain (UniProt Q9ULX5); chain QPMAPRELPTCSICLERLRDPISLDCGHDFCIRCFSTHRLPGCEPPCCPECRKICKQKRGLR
Target sequence (chain): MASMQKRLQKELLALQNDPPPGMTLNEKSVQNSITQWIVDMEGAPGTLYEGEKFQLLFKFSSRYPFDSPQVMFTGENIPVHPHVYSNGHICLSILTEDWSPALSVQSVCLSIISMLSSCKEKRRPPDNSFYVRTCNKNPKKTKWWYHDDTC
For `B1 (RNF43 RING domain)`, “lacZ reporter activity” read 0.
`B2 (RNF150 RING domain)`: “lacZ reporter activity” 8860.
For `B3 (PEX2 RING domain)`, “lacZ reporter activity” read 0.
For `ISNDSETLEECMVCSDMKRDTLFGPCGHIATCSLCSPRVKKCLICKEQVQSRTKIE (MIB1 RING domain (UniProt Q86YT6))`, “lacZ reporter activity” read 0.
`B4 (TRIM3 RING domain)` — result for “lacZ reporter activity”: 0.
`B5 (ANKIB1 RING domain)`: “lacZ reporter activity” 0.
For `B6 (NSMCE1 RING domain)`, “lacZ reporter activity” read 0.
For `B7 (RNF112 RING domain)`, “lacZ reporter activity” read 0.

Set 2
Target: CCNE1, cyclin fold, Cln2 fusion (human)
Method: yeast growth competition, sequencing
Medium: yeast
Setting: strong parent motif
Reference: not given
Direction: higher = stronger binding
Starting sequence: viral docking peptide; KGVKRKLFAEDSS; partner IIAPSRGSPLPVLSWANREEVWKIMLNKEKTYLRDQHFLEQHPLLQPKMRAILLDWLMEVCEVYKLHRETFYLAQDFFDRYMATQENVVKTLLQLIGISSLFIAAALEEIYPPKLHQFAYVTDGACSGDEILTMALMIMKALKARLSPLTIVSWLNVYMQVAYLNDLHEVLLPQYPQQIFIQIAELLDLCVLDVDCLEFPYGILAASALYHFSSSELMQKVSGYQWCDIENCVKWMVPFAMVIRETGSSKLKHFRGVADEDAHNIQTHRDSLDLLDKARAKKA
`KCVKRKLFAEDSS [G2C]`: “normalised enrichment score” 7.57.
For `KGVKCKLFAEDSS [R5C]`, “normalised enrichment score” read 1.84.
Under “normalised enrichment score”, `KGIKRKLFAEDSS [V3I]` is recorded as 4.51.
Under “normalised enrichment score”, `KGVKRSLFAEDSS [K6S]` is recorded as 4.09.
For `KGVKRKLFAEDKS [S12K]`, “normalised enrichment score” read 7.12.
Under “normalised enrichment score”, `KGVKRKLFAKDSS [E10K]` is recorded as 5.8.
`KGVKRKLFAELSS [D11L]` — result for “normalised enrichment score”: 6.42.
`KGVKDKLFAEDSS [R5D]` — result for “normalised enrichment score”: -0.145.

Single results of other studies
HLA class I histocompatibility antigen, A alpha chain allele A*69:01: HLA class I histocompatibility antigen, A alpha chain, allele A*69:01 (Homo sapiens, UniProt P04439)
`DAAAPLPPV` — result for binding: “active” (HLA class I histocompatibility antigen, A alpha chain allele A*69:01; peptide-MHC binding; peptide; concentration not given).
With `O=[N+]([O-])O[C@H]1CO[C@H]2[C@@H]1OC[C@H]2O[N+](=O)[O-]` the viability was 101% (HEK-293T/ACE2; Hoechst nuclei count; concentration not given, 16 (unit not given); reference: vehicle).
Under binding, `FLGKIWPS` is recorded as “inactive” (HLA class I histocompatibility antigen, A alpha chain allele A*69:01; peptide-MHC binding; peptide; concentration not given).
Under “log2 fold change”, `CC(C)CC(N(C)C)C1(c2ccc(Cl)cc2)CCC1` (centres unmarked) is recorded as 0.47 (Sarcocystis neurona; parasite growth; 10 µM, 96 h, second screen; reference: untreated).

For quick reference, copied from above (set 2):
`KCVKRKLFAEDSS [G2C]`: “normalised enrichment score” 7.57.
